Published values collected from several papers.
Each line is one published result; not all experiments were run side by side. “And” joins repeats or separate records; there may be more than shown. ± marks the error that the study gave.
PACC1: PACC1 (Homo sapiens, UniProt Q9H813)
MMP13: Collagenase 3 (MMP13, Homo sapiens, UniProt P45452)
NT5E membrane-bound form: 5'-nucleotidase, membrane-bound form (NT5E, Homo sapiens, UniProt P21589)
MAP3K3: Mitogen-activated protein kinase kinase kinase 3 (MAP3K3, Homo sapiens, UniProt Q99759)
OPRK1: Kappa-type opioid receptor (OPRK1, Homo sapiens, UniProt P41145)
HTR6: 5-hydroxytryptamine receptor 6 (HTR6, Homo sapiens, UniProt P50406)
CSNK1E: Casein kinase I isoform epsilon (CSNK1E, Homo sapiens, UniProt P49674)
ADORA2A: Adenosine receptor A2a (ADORA2A, Homo sapiens, UniProt P29274)

Compound | target or system | test | system | setting | how to read | measurement | value
CN(C(=O)n1cnc(-c2ccc[n+]([O-])c2)c1)C1CCCCC1 | NPY2R (Homo sapiens, UniProt P49146) |  |  | 10 µM |  | inhibition | 10.5%
Cc1ccc(C(=O)Nc2ccc3ccccc3c2)o1 | PACC1 | ion current, whole-cell patch-clamp |  | 10 µM |  | inhibition | 2.54%
C[C@H]1[C@H](OC(=O)CCC(=O)O)O[C@@H]2O[C@@]3(C)CC[C@H]4[C@H](C)CC[C@@H]1[C@@]24OO3 | Non-structural polyprotein pORF1, RNA-dependent RNA polymerase (Hepatitis E virus genotype 1, UniProt P33424) | polymerase activity, colorimetric |  | 39 µM |  | inhibition | 38.9%
COc1nc(NCc2cn(-c3ccc(C(=O)Nc4ccc(C(F)(F)F)cc4)cc3)nn2)nc(OC)n1 | MMP13 | inhibitor |  | 0.1 µM |  | inhibition | 21.9 ± 0.786%
CCOC(=O)c1ccc(NC(=O)c2sc3nc(C)cc(C(F)(F)F)c3c2N)cc1 | NT5E membrane-bound form | CD73 activity, inhibitor, malachite green phosphate | MDA-MB-231 | 100 µM, added: 200 µM AMP |  | inhibition | 2 ± 2%
CC/C(=N\NC(=O)NCc1cccc(O)c1)c1ccc(O)c(C)c1O | MAP3K3 | kinase activity |  | 0.1 µM |  | inhibition | 3.7%
O=C(Nc1cccc2c(=O)cc(-c3nnn[nH]3)oc12)c1ccc(OCCCCc2ccccc2)cc1 | Volume-regulated anion channel subunit LRRC8C, part LRRC8A IL1 chimera (LRRC8C, Homo sapiens, UniProt Q8TDW0, Y126F) | ion current, inhibitor, whole-cell patch clamp | HCT LRRC8-/- cells | 1 µM, -100 mV |  | inhibition | 42.8% and 59.8% and 58.6% and 53.3%
O=C(C#Cc1cn(Cc2ccccc2)c(=O)[nH]c1=O)NCc1ccc(F)cc1 | MMP13 |  |  | 6.5 µM |  | inhibition | 51 ± 2%
CN1CCC[C@H]1c1cccnc1 (racemic) | neuronal nicotinic acetylcholine receptor (rat) | radioligand binding | rat brain | 1×10 µM |  | inhibition | 98.8%
O=C(O)CNC(=O)Cc1ccccc1 |  |  | ventricular cardiomyocytes, C57BL/6 mouse | dose not given, 0.536 s |  | sarcomere length | 1.62 µm
CCN(Cc1ccccc1C(F)(F)F)C(=O)C1CCN(S(=O)(=O)c2ccc3[nH]ncc3c2)CC1 | human nicotinic acetylcholine receptor | radioligand binding |  | 10 µM |  | inhibition | 8%
O=C(NO)c1ccc(CN2CCCCc3ccccc32)c(F)c1 | OPRK1 | radioligand binding, radioligand displacement |  | 10 µM, mean of replicates |  | inhibition | 17.1%
CCC1(c2ccccc2)NC(=O)NC1=O (stereo not drawn) | GABA-A receptor alpha-1/beta-3, with gamma-2 subunit (GABRA1/GABRB3, Homo sapiens, UniProt P14867+P28472) | etomidate-enhanced [3H]muscimol binding |  | 300 µM, α1β3γ2 receptor |  | inhibition | 38%
COc1cc(Cl)c(C(=O)N[C@@H](CN[C@H]2CC[C@@H](N)CC2)Cc2ccc(C#N)cc2)cc1-c1ccc(CN[C@H](C)c2ccc(C)cc2)o1 | HRH2 (Homo sapiens, UniProt P25021) | agonist response, antagonist | human cells | 10 µM, H2 antagonist |  | inhibition | -4%
COc1ccc2c(c1)CN(CCCN1CCN(c3ccccc3OC)CC1)C2=O | HTR6 | radioligand binding |  | concentration not given, added: [3H]LSD |  | inhibition | 6%
COC(=O)c1ccc(NC(=O)c2sc3nc(C)cc(C)c3c2N)cc1 | NT5E membrane-bound form | CD73 activity, inhibitor, malachite green phosphate | MDA-MB-231 | 100 µM, added: 200 µM AMP |  | inhibition | 44 ± 7%
CC[C@@H]1[C@H](F)C(=O)N[C@@H]1COc1nccc2cc(C(N)=O)c(OC)cc12 | PRKD2 (Homo sapiens, UniProt Q9BZL6) | ATP-site probe binding, ActivX profiling, measured: PKD2 | THP-1 cell lysate | 0.04 mM, Lys1 site |  | inhibition | 12.3%
Cn1cc(-c2ccc(-c3cncc(Cl)c3N3CCC4(CCNC4=O)CC3)cc2)cn1 | COLO 205 | gene expression, microarray, measured: CCNB1 mRNA |  | concentration not given, 2 h | reference: untreated cells | log2 fold change | -2.32
Fc1ccc(-c2c(-c3ccncc3)ncn2-c2ccc(-c3ccccc3)cc2)cc1 | CSNK1E | inhibitor |  | 1 µM |  | inhibition | 74%
O=C1c2ccccc2CCN1CCCCN1CCN(c2cccc(Cl)c2Cl)CC1 | HTR6 | radioligand binding |  | concentration not given, added: [3H]LSD |  | inhibition | 89.8%
COc1cccc(F)c1Cn1cnc(-c2ccncc2)c1-c1ccc(F)cc1 | CSNK1E | inhibitor |  | 1 µM |  | inhibition | 31%
Nc1ncnc2c1ncn2[C@@H]1O[C@H](COP(=O)(O)CP(=O)(O)OP(=O)(O)O)[C@@H](O)[C@H]1O | P2X purinoceptor 1 (P2RX1, Homo sapiens, UniProt P51575, R292A) | calcium influx |  | 100 nM | reference: ionomycin response | calcium influx | 0% and 0.0613% and 0.208% and 0.271%
COc1cc(-c2cc(-c3ccc(N4CCNCC4)cc3)cnc2C)cc(OC)c1OC | Mitogen-activated protein kinase kinase kinase 7, with TAB1 (MAP3K7, Homo sapiens, UniProt O43318) | kinome profiling |  | 0.1 µM |  | inhibition | 1%
CCS(=O)(=O)c1nc(S(=O)(=O)c2ccccc2Cl)c(N2CCN(C)C(=O)[C@H]2C)s1 | OPRK1 |  |  | 10 µM |  | inhibition | 5.73%
Fc1ccc(-c2ncn(-c3ccc(-c4ccccc4)cc3)c2-c2ccncc2)cc1 | CSNK1E | inhibitor |  | 1 µM |  | inhibition | 42%
CC(C)c1noc2ncc(C(=O)c3ccccc3O)cc12 | PACC1 | ion current, inhibitor, whole-cell patch clamp |  | 10 µM |  | inhibition | 0% and 7.2% and 1.05% and 0.68%

Compound | target or system | test | system | setting | how to read | measurement | value
COc1cccc(C(=O)Nc2nc3ccccc3[nH]2)c1 | ADORA2A |  |  | 30 µM |  | inhibition | 10 ± 4%
CCN1CCN(Cc2ccc(NC(=O)c3ccc(C)c(/C=C/c4cnc5[nH]ccc5c4OC)c3)cc2C(F)(F)F)CC1 | ULK1 (Homo sapiens, UniProt O75385) |  | A-375 | concentration not given |  | inhibition | -25.7%
COc1cc(Nc2ncc3c(n2)-c2ccc(Cl)cc2C(c2c(F)cccc2OC)=NC3)ccc1C(=O)O | PDGFRA T674I | kinase activity |  | 1 µM |  | remaining activity | 95%
NC/C(=C\F)COc1cccc(Cn2c(=S)[nH]c(=O)c3[nH]cnc32)c1 | Myeloperoxidase (MPO, Homo sapiens, UniProt P05164) | enzyme activity |  | 0.0041 µM |  | inhibition | 28%
CCN1/C(=C/C(C)=O)Sc2ccc(F)cc21 | L-type calcium channel Phenylalkylamine site, rat | radioligand binding |  | concentration not given |  | inhibition | 10.4%
Cc1ccccc1C(=O)Nc1nc2ccccc2[nH]1 | ADORA2A |  |  | 30 µM |  | inhibition | 1 ± 1%
Cc1ccc(OC[C@H]2CN(CCN3CCc4ccccc43)CCO2)cn1 | HTR6 | radioligand binding |  | concentration not given, added: [3H]LSD |  | inhibition | 10.9%
Cc1cc(C)c(C#N)c(SCC(=O)Nc2ccon2)n1 | NT5E membrane-bound form | CD73 activity, inhibitor, malachite green phosphate | MDA-MB-231 | 100 µM, added: 200 µM AMP |  | inhibition | 38 ± 10%
CCc1cccc2c3c([nH]c12)C(CC)(CC(=O)O)OCC3 (stereo not drawn) | PTGS2 (Homo sapiens, UniProt P35354) |  |  | 12.2 µg/mL |  | inhibition | 97.7%
CC(C)C[C@H](NC(=O)C[C@H](O)[C@H](CC(C)C)NC(=O)[C@H](Cc1c[nH]cn1)NC(=O)CNC(=O)[C@@H](NC(=O)[C@H](C)NC(=O)[C@H](Cc1c[nH]c2ccccc12)NC(=O)[C@H](CCC(N)=O)NC(=O)[C@@H](Cc1ccccc1)NC(=O)COCCOCCNC(=O)CCC(C(=O)O)N1CCN(CC(=O)O)CCN(CC(=O)O)CCN(CC(=O)O)CC1)C(C)C)C(N)=O (stereo partly drawn) [lutetium-177 labelled] |  |  | female BALB/c nu/nu mice, skin | intravenous, 100 pmol, 2 h, added: PA 300 µg |  | tissue uptake | 0.17 ± 0.05 %ID/g
COc1cccc(OC[C@@H]2CN(CC(=O)N3CCc4ccccc43)CCO2)c1 | HTR6 | radioligand binding |  | concentration not given, added: [3H]LSD |  | inhibition | 8.9%
Cc1cc(C)c(C#N)c(SC=CC(=O)Nc2ccon2)n1 | NT5E membrane-bound form | CD73 activity, inhibitor, malachite green phosphate | MDA-MB-231 | 100 µM, added: 200 µM AMP |  | inhibition | 16 ± 2%
Cc1ccnc(OC[C@H]2CN(CC(=O)N3CCc4ccccc43)CCO2)c1 | HTR6 | radioligand binding |  | concentration not given, added: [3H]LSD |  | inhibition | -17.5%
Cn1cc(-c2cnc3ccc(NC(=O)Nc4ccc(F)c(Br)c4)cc3n2)cn1 | MAP3K3 | kinase binding, KiNativ profiling, measured: Lys1 peptide | PANC-1 lysate | 2.5 µM |  | inhibition | 1.3%
COc1cc2c(cc1OC)C(=O)C(CC1CCN(Cc3ccccc3)CC1)C2 (stereo not drawn) | HTR6 | radioligand binding |  | concentration not given, added: [3H]LSD |  | inhibition | 15.1%
COC(=O)CNC(=O)CSc1nc(C)cc(C)c1C#N | NT5E membrane-bound form | CD73 activity, inhibitor, malachite green phosphate | MDA-MB-231 | 100 µM, added: 200 µM AMP |  | inhibition | 21 ± 6%
O=C(NC1CCC1)[C@H](Cc1c[nH]c2ccccc12)NC(=O)[C@H](CCCCNC(=S)NCCNc1c(O)c(=O)c1=O)NS(=O)(=O)c1cccc(F)c1 | SIRT5 (Homo sapiens, UniProt Q9NXA8) | enzyme activity, inhibitor |  | 100 µM |  | inhibition | < 0%
NC(=O)c1cnc2[nH]ccc2c1N[C@@H]1[C@@H]2CC3C[C@H]1C[C@@](O)(C3)C2 |  | flow cytometry, measured: CD4+ central memory T cells | Japanese healthy subjects, peripheral blood | oral, 30 mg twice daily, day 7 |  | change from baseline | 0.32%
Cc1cccc(NC(=O)CSc2nc(-c3ccccc3)cc(C)c2C#N)n1 | NT5E membrane-bound form | CD73 activity, inhibitor, malachite green phosphate | MDA-MB-231 | 100 µM, added: 200 µM AMP |  | inhibition | 27 ± 8%
COc1cc(-c2cc(C(C)=O)n3ccccc23)c(OC)cc1Cn1ccnc1 | BAZ2B (Homo sapiens, UniProt Q9UIF8) | binding, inhibitor, AlphaScreen |  | 1 µM |  | inhibition | -31.4%
COc1cc(C(=O)NS(=O)(=O)c2ccccc2C)ccc1Cc1cn(C)c2ccc(NC(=O)OC3CCCC3)cc12 | Volume-regulated anion channel subunit LRRC8C, part LRRC8A IL1 chimera (LRRC8C, Homo sapiens, UniProt Q8TDW0, C43G) | ion current, inhibitor, whole-cell patch clamp | HCT LRRC8-/- cells | 100 µM, +100 mV |  | inhibition | 96.9% and 94.4% and 94.9% and 96.2% and 96.3%
CCOC(=O)c1ccc(NC(=O)c2sc3nc(C)cc(-c4ccccc4)c3c2N)cc1 | NT5E membrane-bound form | CD73 activity, inhibitor, malachite green phosphate | MDA-MB-231 | 100 µM, added: 200 µM AMP |  | inhibition | 32 ± 5%
CN1CCN(c2cc(-c3ccncc3)c(-c3ccc4ccccc4c3)nn2)CC1 | PTGFR (Homo sapiens, UniProt P43088) | antagonist, FLIPR |  | 10 µM |  | inhibition | 3.1%
COCCOCCOCCNC(=O)c1sc2nc(C)cc(C(F)(F)F)c2c1N | NT5E membrane-bound form | CD73 activity, inhibitor, malachite green phosphate | MDA-MB-231 | 100 µM, added: 200 µM AMP |  | inhibition | 3 ± 3%
Cc1cc2c(cc1N1C(=O)c3cccc4c(CCCO)ccc(c34)C1=O)n(C)c(=O)n2C (racemic) | CECR2 (Homo sapiens, UniProt Q9BXF3) | binding, BROMOscan binding |  | 100 nM |  | inhibition | 74%
